Measurements gathered from unrelated publications.
Lines come from different studies, so protocols differ. Values joined by “and” are separate records of one study, mostly repeats; a detail may differ.
Target: Serine/threonine-protein kinase TAO2 (TAOK2, Homo sapiens, UniProt Q9UL54)

Compound | test | setting | how to read | endpoint | result
COc1ccc(NC(=O)Nc2ccc3c(c2)C(=O)N(C(C)CO)CC(C)C(CN(C)Cc2ccc4c(c2)OCO4)O3)cc1 (stereo not shown) | kinase activity, KinaseProfiler | 0.03 µM, species human | baseline: control | remaining activity | 104%
CC(C)=CC1OC(C)(C)C2C=C3C(=O)C(Cl)=CC(O)C3C3C(O)C4OC4C(=O)C132 (stereo not shown) | cell-free assay, competition with immobilised ligand | 10 µM |  | remaining binding | 66%
COc1cc(Nc2nccc(-c3cnn4nc(OC)ccc34)n2)cc(C(F)(F)F)c1 | binding, competition with immobilised ligand | 1 µM |  | remaining binding | 86%
COc1ccc(C(=O)/C=C/c2ccccc2-c2c[nH]c3ccc(C#N)cc23)c(O)c1 | enzyme activity, inhibitor | 20 µM |  | inhibition | -3%
Cc1cnc2nc1Nc1cccc(c1)COC/C=C/COCc1cc(ccc1OCCN1CCOCC1)N2 | binding, competition with immobilised ligand | 0.1 µM |  | remaining binding | 100%
CN1CC[C@@H](COc2cnc(C#N)cc2-c2ccn3nc(NC(=O)C4CC4)cc3c2)C1 | enzyme activity, inhibitor | 1 µM |  | inhibition | 1%
NC(=O)C[C@H]1CCc2sc3ncnc(O[C@H]4CC[C@H](N5CCOCC5)CC4)c3c21 | radioisotope kinase | 10 µM |  | inhibition | 0%
CCn1cc(C(=O)O)c(=O)c2c(N)c(F)c(NC3CCCCC3)cc21 | kinase activity | 0.1 µM, with: ATP at Km |  | inhibition | 5.4%
O=C=[N][Ru-4]123([n]4c5ccc(O)cc5c5c6c(c7cc(F)c[n+]1c7c54)C(=O)NC6=O)[S+]1CC[S+]2CC[S+]3CC1 (stereo not shown) | enzyme activity | 100 nM, human enzyme, with: 10 µM ATP | baseline: untreated | remaining activity | 103%
Cc1ccc(-c2c(/C=C(\C#N)C(=O)NC(C)C)n(CCCO)c3ncnc(N)c23)cc1 | cell-free assay, competition with immobilised ligand | 1 µM |  | remaining binding | 100%
CNC(=O)C1CCN(c2cc(C)c(F)cc2NC(=O)c2ccc(-c3cc(O)ccc3C)c(C)c2)CC1 | binding, competition with immobilised ligand | 1 µM |  | remaining binding | 95%
Nc1ncc(-c2cc(-c3cnn(CC(F)(F)F)c3)ncc2F)nc1C(=O)NC1CNCC(F)C1 (stereo not shown) | enzyme activity | 1 µM | baseline: DMSO control | remaining activity | 77.7%
C=CC(=O)Nc1cccc(-c2cnc3[nH]cc(C(=O)NC(C)(C)C)c3n2)c1 | kinase activity | 0.1 µM |  | inhibition | 5% and 7%
CCN1CCN(Cc2ccc(C(=O)Nc3ccc(C)c(NCc4cnc5[nH]ccc5c4OC)c3)cc2C(F)(F)F)CC1 | binding, competition with immobilised ligand | 1 µM |  | remaining binding | 53%
C=CC(=O)N1Cc2nc(-c3cc(-c4cc(Cl)cnc4Cl)c(F)cc3F)n(-c3ccncn3)c2C1 | kinome panel | 1 µM |  | inhibition | 3.9%
Cc1cccc(O[C@H]2CCC[C@@H](C(C)CNCc3ccncc3)C2)c1 (relative stereo) | enzyme activity, inhibitor | 10 µM |  | inhibition | -7%

A few entries again:
Compound | test | setting | how to read | endpoint | result
O=C=[N][Ru-4]123([n]4c5ccc(O)cc5c5c6c(c7cc(F)c[n+]1c7c54)C(=O)NC6=O)[S+]1CC[S+]2CC[S+]3CC1 (stereo not shown) | enzyme activity | 100 nM, human enzyme, with: 10 µM ATP | baseline: untreated | remaining activity | 103%
Cc1ccc(-c2c(/C=C(\C#N)C(=O)NC(C)C)n(CCCO)c3ncnc(N)c23)cc1 | cell-free assay, competition with immobilised ligand | 1 µM |  | remaining binding | 100%
